Results from different studies.
± marks the error that the study gave.
ache: Acetylcholinesterase (ache, Electrophorus electricus, UniProt O42275)
ESR1: Estrogen receptor (ESR1, Homo sapiens, UniProt P03372)

O=c1c2ccccc2oc2cc(OCCCCc3ccccc3)ccc12
Vmax (ache; enzyme activity, inhibitor, Lineweaver-Burk plot; 0.73 µM; higher = faster reaction): 0.0044 a.u.

CC1(C)C(C=C(Cl)Cl)C1C(=O)OCc1cccc(Oc2ccccc2)c1 (stereo not drawn)
remaining activity (uncharacterized protein (Anopheles coluzzii, UniProt A0A6E8VQK1); enzyme activity, inhibitor; Sf9 cell homogenate; 49.36 µM, 0.1667 h, together with: α-naphthyl acetate substrate; baseline: no inhibitor): 97.9%

Oc1cc(Br)cc(Br)c1Oc1ccc(Br)cc1Br
apparent Vmax (SULT1E1 (Homo sapiens, UniProt P49888); sulfonation, substrate): 8.65 nmol/min/mg protein

O=C(Nc1cccnn1)N1CCC(=Cc2cccc(Oc3ccc(C(F)(F)F)cn3)c2)CC1
inhibition (AVPR2 (Homo sapiens, UniProt P30518); binding; 50 µM, together with: [3H][Arg8]vasopressin): 13%

CCC(C)c1cc([N+](=O)[O-])cc([N+](=O)[O-])c1O (stereo not drawn)
binding fold change (FABP1 (Homo sapiens, UniProt P07148); affinity selection mass spectrometry; 100 nM, together with: pooled compounds; baseline: other proteins): 59.1

COc1ccc(N2C(=O)N(c3c(C)cccc3Cl)Cc3cnc(Nc4ccc(C5CCN(C)CC5)cc4OC)nc32)nc1
inhibition (EPHB1 (Homo sapiens, UniProt P54762); kinase activity; 0.5 µM): 98%

O=C(Nc1cnccc1Cl)N1CCN(Cc2ccc3c(c2)OC(F)(F)O3)CC1
inhibition of binding (HRH4 (Homo sapiens, UniProt Q9H3N8); radioligand binding; 50 µM, together with: [3H]histamine): 10%

O=C(O)Cc1c[nH]cn1
normalised MST signal (SLC6A6 (Homo sapiens, UniProt P31641, Y138A); binding, microscale thermophoresis; 61 nM, room temperature, together with: 50 nM labelled protein; higher = more binding): 0.0304

O=c1cc(CSc2ccc(N=Cc3ccccc3)cc2)occ1O
bimolecular quenching constant (PPO3 (Agaricus bisporus, UniProt C7FF04); fluorescence quenching): 3.08e+13 M⁻¹ s⁻¹

CC[N+]1(C)CCN(c2ccccc2)CC1
response relative to ACh (CHRNA9 (Homo sapiens, UniProt Q9UGM1); peak current, agonist, two-electrode voltage clamp; Xenopus oocytes coexpressing rapsyn; 30 µM; baseline: ACh 60 µM): 70%

CC1(C)C=C(CNc2ccc3c(c2)Cc2cc(Br)ccc2-3)C(C)(C)N1[O]
T1 relaxation time (Amyloid-beta precursor protein, amyloid-beta (APP, Homo sapiens, UniProt P05067); MRI, MSME; 5xFAD mice, brain; iv, 3 mg/kg, 24 h): 1120 ms

Nc1ncnc2c1ncn2[C@@H]1O[C@H](COP(=O)(O)OP(=O)(O)O)[C@@H](O)[C@H]1O
ΔH (Cell cycle histidine kinase CckA, R374A; cytoplasmic region (Caulobacter vibrioides, UniProt Q9X688, R374A); binding, ITC; together with: without c-di-GMP): -2200 ± 51.4 cal/mol

COC(=O)Nc1ccc(-c2nc(N3CCOCC3)c3cnn(C4CCN(C(=O)OC)CC4)c3n2)cc1
maximum inhibition (human coronavirus OC43; virus-induced cell killing; MRC-5; maximum over 10 doses): 0%

Nc1ccc(O)c(C(=O)O)c1
polyphosphate synthesis (ppk (Escherichia coli, UniProt P0A7B1, E56K); inhibitor; 1 mM; baseline: DMSO): inhibited

NC(=O)c1ccc[n+]([C@@H]2O[C@H](COP(=O)([O-])OP(=O)(O)OC[C@H]3O[C@@H](n4cnc5c(N)ncnc54)[C@H](O)[C@@H]3O)[C@@H](O)[C@H]2O)c1
Km (ADH1 (Saccharomyces cerevisiae, UniProt P00330, H49Q); enzyme activity, substrate; pH 7.3, 30 °C): 100 µM

CC[C@@H](C)[C@@H](NC(=O)[C@@H](Cc1ccc(O)cc1)NC(=O)[C@H]1CCCN1C(=O)[C@@H](CCCNC(=N)N)NC(=O)[C@H](N)Cc1c[nH]cn1)C(=O)N[C@H](C)C(=O)N[C@H](Cc1c[nH]cn1)C(=O)N[C@H](CCCNC(=N)N)C(=O)N[C@H](CCCCNC(=O)c1cccc(S(=O)(=O)F)c1)C(=O)N[C@H](Cc1ccc(O)cc1)C(=O)N[C@H](CO)C(=O)N[C@H](Cc1ccccc1)C(N)=O
surface TFRC expression (Transferrin receptor protein 1 (Tfrc, Mus musculus, UniProt Q62351); flow cytometry; MC-38; 48 h, unit not given; baseline: 0 h): 0.469

NC(CC1(C(=O)O)CC2OC(CO)C(O)C(O)C2O1)C(=O)O (stereo not drawn)
recovered plateau current amplitude (Glutamate receptor ionotropic, kainate 1 (Rattus norvegicus, UniProt P22756, del402-416); glutamate-evoked current, patch clamp; concentration not given, 30 s application): 70%

Oc1ccc(-c2cc(Cl)ccc2Cl)c(Cl)c1
EC25 (ESR1; reporter gene, agonist; T47D.luc; 24 h; baseline: estradiol): 0.1 µM

COc1ccc(-c2csc(N/N=C(/C=C/c3c(Cl)cccc3Cl)C(=O)O)n2)cc1
selectivity index (ache; Ellman; baseline: IC50 BChE over IC50 AChE): 10

O=C(O)COP(=O)(O)O
Ki ratio (TPI1 (Saccharomyces cerevisiae, UniProt P00942, Y208S); enzyme activity, competitive inhibitor, GPDH/NADH-coupled; pH 5.7, 25 °C, ionic strength 0.1 NaCl, together with: glyceraldehyde 3-phosphate substrate; baseline: mutant over wild type): 84

O=C(CF)NC1C(O)CC(OC2C(O)C(CO)OC(Oc3ccc([N+](=O)[O-])cc3)C2O)(C(=O)O)OC1C(O)C(O)CO (stereo not drawn)
Km (Sialidase-2 (Homo sapiens, UniProt Q9Y3R4); substrate; 10 min, pH 5.0, 37 °C): 1800 ± 200 µM

CSCC[C@H](N)C(=O)N[C@@H](C)C(=O)N[C@@H](C)C(=O)N[C@H](C(=O)N[C@@H](C)C(=O)NCC(=O)N[C@@H](CC(C)C)C(=O)N[C@@H](Cc1ccc(O)cc1)C(=O)NCC(=O)N[C@@H](CC(C)C)C(=O)NCC(=O)N[C@@H](CCC(=O)O)C(=O)N[C@@H](CC(=O)O)C(=O)N[C@@H](CCCNC(=N)N)C(=O)N[C@@H](CCC(N)=O)C(=O)N[C@@H](Cc1c[nH]cn1)C(=O)N[C@@H](CCCNC(=N)N)C(=O)N[C@@H](CCCCN)C(=O)N[C@@H](CCCCN)C(=O)N[C@@H](CCC(N)=O)C(N)=O)C(C)C
Hill coefficient (Sh, DEL6-46 (Drosophila melanogaster, UniProt P08510); ion current, blocker, inside-out patch clamp; +90 mV): 0.94

COc1cc(N)c(Cl)cc1C(=O)NC1CN2CCC1CC2 (stereo not drawn)
log2 fold change (GPR52 (Homo sapiens, UniProt Q9Y2T5); β-arrestin recruitment, TANGO luminescence; concentration not given; baseline: basal luminescence): -0.21

COc1cc(Nc2ncc(F)c(Nc3ccc4c(n3)NC(=O)C(C)(C)O4)n2)cc(OC)c1OC
inhibition (CDK14 (Homo sapiens, UniProt O94921); binding, KINOMEscan; 10 µM, PFTK1 kinase): 0%

CC1(C)COP(=O)(O)O[C@H]1C(=O)NCCC(=O)NS(=O)(=O)OC[C@H]1O[C@@H](n2ccc(N)nc2=O)[C@H](O)[C@@H]1O
selectivity ratio (phosphopantothenoylcysteine synthetase; enzyme activity; baseline: IC50 human over bacterial): 20 to 740 fold

O=C(NCCCN1CCCCC1)c1cc(Sc2ccc(Cl)cc2)nc2ccccc12
cytotoxicity efficacy (Vero-E6; CellTiter-Glo ATP; concentration not given, 72 h, second round 5-point; baseline: DMSO 0%, hyamine -100%, more negative, more toxic): -16.7%

O=C(c1ccc(Cl)cc1)N1CCN2C(=O)N(OC(=O)N3CCOc4ccccc43)C(=O)C2C1 (stereo not drawn)
median ratio (Kynurenine formamidase (AFMID, Homo sapiens, UniProt Q63HM1); enzyme activity, inhibitor, MS-based ABPP; SW-620 in situ; 10 µM, 2 h, 37 °C; baseline: compound over DMSO, lower = stronger inhibition): 1.17

Nc1ncc(-c2nc(N3CCOCC3)nc(N3CCOCC3)n2)c(C(F)F)n1
remaining binding (LATS2 (Homo sapiens, UniProt Q9NRM7); KINOMEscan; 10 µM): 89%

CC/C=C\C/C=C\C/C=C\C/C=C\C/C=C\CCCC(=O)O
formation rate (cyp102A1 (Bacillus megaterium, UniProt P14779); substrate, refers to: 17,18-EEQ; 30 s, together with: NADPH 0.5 mM): 2.57 ± 0.09 µmol/min/nmol BM3

CN1C(=O)CC[C@H](N2Cc3c(ccc4c3OCC43CCN(C[C@@H]4CCC5(CCN(c6ccc([C@@H]7c8ccc(O)cc8CC[C@@H]7c7ccccc7)cc6)CC5)OC4)CC3)C2=O)C1=O
ER protein level (ESR1; degrader, Western blot; MCF7 (ER wild-type); 10 and 100 nM, 7 h): no effect

COc1ccc2[nH]c3c(c2c1)CCN(C)CC3.Cl
recovery time constant (Nicotinic acetylcholine receptor alpha9/alpha10 (Rattus norvegicus, UniProt P43144+Q9JLB5); ion current, inhibitor, two-electrode voltage clamp; Xenopus laevis oocytes; 10 µM, rat receptor, together with: acetylcholine 100 µM): 19 ± 1.1 s

CC(C)[C@@H](O)CC[C@@H](C)[C@H]1CC[C@H]2[C@@H]3CC=C4C[C@@H](O)CC[C@]4(C)[C@H]3CC[C@]12C
current response (Glutamate NMDA receptor; GRIN1/GRIN2B (GRIN1/GRIN2B, Homo sapiens, UniProt Q05586+Q13224, S553A); positive allosteric modulator, two-electrode voltage clamp; Xenopus oocytes expressing GluN1-S553A; 10 µM, 0.02% cremophor, together with: 100 µM glutamate and glycine; baseline: without compound): 100 ± 9.2%

C[C@H]1CN(c2n[nH]c3nc(N[C@H]4CC[C@H](NS(=O)(=O)CCC(F)(F)F)CC4)ncc23)CCO1
remaining binding (MAPK14 (Homo sapiens, UniProt Q16539); Kinobeads competition; HEK293, K562, placenta lysate; 0.032 µM, unit not given; baseline: vehicle): 0.97

Cc1cn([C@H]2C[C@H](O)[C@@H](COP(=O)(O)Oc3ccc([N+](=O)[O-])cc3)O2)c(=O)[nH]c1=O
kcat (Autotaxin (ENPP2, Homo sapiens, UniProt Q13822); phosphodiesterase activity, substrate): 1.6 s⁻¹

CN(C(=O)n1cnc(-c2ccc[n+]([O-])c2)c1)C1CCCCC1
inhibition (ZAP70 (Homo sapiens, UniProt P43403); kinase activity; 50 µM, together with: poly(Glu,Tyr)): 0%

CCCCCCCC(=O)CC(=O)N[C@H]1CCOC1=O
Emax (Regulatory protein SdiA (sdiA, Escherichia coli, UniProt P07026)): 86.6%

CCCCCCCCCCCCCCCCOc1nc2ccc(C)cc2c(=O)o1
maximum inhibition (human coronavirus OC43; virus-induced cell killing; MRC-5; screen): 9.21%

O=C(NNC(=O)c1csnn1)c1ccc(Cl)cc1
remaining activity (Acetyl-CoA synthetase (Cryptococcus neoformans, UniProt J9VFT1); 48.9 nM): 98.5%

O=C(Nc1ccc2c(c1)B(O)OC2)c1cccc(OCc2ccccc2)c1
inhibition (Genome polyprotein, NS2B-NS3 protease (dengue virus type 2, UniProt P29990); enzyme activity, FRET; dengue virus serotype 2; 50 µM, together with: substrate 50 µM): 30 ± 5%

CN1CCN(c2cc(-c3ccncc3)c(-c3ccc4ccccc4c3)nn2)CC1
activation (ADORA1 (Homo sapiens, UniProt P30542); agonist, FLIPR; 12.5 µM): 0%

[2H]c1c([2H])c([C@]2([2H])CCCN2C(=O)C(C)(C)Oc2ccc3cn[nH]c3c2)c([2H])c([2H])c1C([2H])([2H])[2H]
remaining binding (FGR (Homo sapiens, UniProt P09769); KINOMEscan; 1 µM; baseline: DMSO control): 60%

Nc1ccncc1
activation (Glutamate receptor 2 (Homo sapiens, UniProt P42262); ion current, agonist, automated patch clamp; HEK293; 30 µM): 3%

Excerpt of the above:
COc1ccc(-c2csc(N/N=C(/C=C/c3c(Cl)cccc3Cl)C(=O)O)n2)cc1
selectivity index (ache; Ellman; baseline: IC50 BChE over IC50 AChE): 10

O=C(O)COP(=O)(O)O
Ki ratio (TPI1 (Saccharomyces cerevisiae, UniProt P00942, Y208S); enzyme activity, competitive inhibitor, GPDH/NADH-coupled; pH 5.7, 25 °C, ionic strength 0.1 NaCl, together with: glyceraldehyde 3-phosphate substrate; baseline: mutant over wild type): 84

O=C(CF)NC1C(O)CC(OC2C(O)C(CO)OC(Oc3ccc([N+](=O)[O-])cc3)C2O)(C(=O)O)OC1C(O)C(O)CO (stereo not drawn)
Km (Sialidase-2 (Homo sapiens, UniProt Q9Y3R4); substrate; 10 min, pH 5.0, 37 °C): 1800 ± 200 µM

CSCC[C@H](N)C(=O)N[C@@H](C)C(=O)N[C@@H](C)C(=O)N[C@H](C(=O)N[C@@H](C)C(=O)NCC(=O)N[C@@H](CC(C)C)C(=O)N[C@@H](Cc1ccc(O)cc1)C(=O)NCC(=O)N[C@@H](CC(C)C)C(=O)NCC(=O)N[C@@H](CCC(=O)O)C(=O)N[C@@H](CC(=O)O)C(=O)N[C@@H](CCCNC(=N)N)C(=O)N[C@@H](CCC(N)=O)C(=O)N[C@@H](Cc1c[nH]cn1)C(=O)N[C@@H](CCCNC(=N)N)C(=O)N[C@@H](CCCCN)C(=O)N[C@@H](CCCCN)C(=O)N[C@@H](CCC(N)=O)C(N)=O)C(C)C
Hill coefficient (Sh, DEL6-46 (Drosophila melanogaster, UniProt P08510); ion current, blocker, inside-out patch clamp; +90 mV): 0.94

COc1cc(N)c(Cl)cc1C(=O)NC1CN2CCC1CC2 (stereo not drawn)
log2 fold change (GPR52 (Homo sapiens, UniProt Q9Y2T5); β-arrestin recruitment, TANGO luminescence; concentration not given; baseline: basal luminescence): -0.21
